# Measurements from different studies.
# Lines come from different studies, so protocols differ. Numbers after ± are the reported error.
Structure (SMILES),assay,system,setting,scale,measurement,result
C=CC(=O)NC1CCN(c2ncc3ncnc(Nc4ccc(Oc5ccc6c(c5)ncn6C)c(C)c4)c3n2)CC1,refers to: muscle twitching,human male,"oral, dose not given, AEs, treatment-related, on drug, CTCAE",,adverse events incidence,0%
O=S(=O)(NCCSc1ccccn1)c1ccc(Br)cc1,,octanol/buffer,"pH 11, known kinase inactives set",,logP,2.85
CC1=C(c2cccc(O)c2)[C@H](c2ccc(OCCN3CC(CF)C3)cc2)Oc2ccc(O)cc21,,"human, plasma","oral, 1400 mg once daily, steady state geometric mean",,AUC(0-24 h),1890 ng·h/mL
C=CC(=O)NC1CCN(c2ncc3ncnc(Nc4ccc(Oc5ccc6c(c5)ncn6C)c(C)c4)c3n2)CC1,,"healthy male volunteers, plasma","oral, 60 mg, tablet",,dose-normalised Cmax,16.6 pmol/L/µg
N=C(N)NC(=O)c1ccc(Cl)c(S(N)(=O)=O)c1,,octanol/buffer,"pH 11, urokinase ligand set",,logP,-1.59
Cc1cc(NC(=O)c2cccc(NC(=O)/C=C/CN(C)C)c2)ccc1Nc1nccc(-c2cccnc2)n1,metabolic stability,"Wistar rat, male, primary hepatocytes","1 µM, 90 min",,compound remaining,62.3%
OC[C@H]1OC(O)[C@H](O)[C@@H](O)[C@@H]1O (stereo partly drawn),,aqueous solution,"10 mM, added: glucosamine",,osmolality,7 mOsmol/kg
CC(C)c1nc(N(C)S(C)(=O)=O)nc(-c2ccc(F)cc2)c1/C=C/[C@@H](O)C[C@@H](O)CC(=O)O,,"healthy human volunteers, plasma","oral, dose not given, BCRP probe substrate, added: multiple-dose momelotinib",reference: compound alone,increase in Cmax,220%
CCc1cc(C(=O)NC)c2nccc(N3CCc4c(cc(Cn5ccnc5)cc4-c4cn(C)nc4C(F)(F)F)C3=O)c2c1,,Sprague Dawley rats,"oral, 50 mg/kg once daily, 7 days",reference: vehicle,serum TG change,-7.6%
CC(C)n1c(Nc2cccnc2)nc2cnc(Nc3ccc(N4CCN(C)CC4)cc3)nc21,refers to: antithrombin III antibodies elevated,"healthy human, male","oral, dose not given, CTCAE grade 1-3",,subjects with TEAE,19%
C[C@@H](Oc1ccc(S(C)(=O)=O)cc1C(=O)N1C[C@@H]2C[C@]2(c2cc(C(F)(F)F)on2)C1)C(F)(F)F,,"young humans, plasma","oral, 25 mg once daily, single dose, geometric mean",,half-life,59.3 h
Cc1cc(-c2nccc3c2ccn3CC(=O)Nc2ccc(-c3cnccn3)cn2)ccn1,refers to: Cmax,"human, plasma","oral, 20 mg once daily",reference: day 16 over day 1,accumulation ratio,1.91
O=C(COc1ccc(Cl)cc1)NC12CC(c3nnc([C@H]4C[C@@H](OC(F)(F)F)C4)o3)(C1)C2,,humans,200 mg once daily,,muscle spasms,11.1%
O=C1NCCc2nc(OCc3cccc(F)c3)ccc21,refers to: Tremors,Sprague-Dawley rat male,"oral, 100 mg/kg, 4 h",direction not given,Irwin test score,0
COc1cc([N+](=O)[O-])ccc1NC(=O)CN1CCOCC1,,octanol/buffer,"pH 11, known kinase inactives set",,logP,2
CC(C)(C(=O)N1CCOc2c(C#N)cncc2C1)C(F)F,refers to: abdominal pain,human,"oral, 20 mg once daily, 14 days, multiple ascending dose",,subjects with adverse event,0%
Cl.[2H]C([2H])([2H])CC(=O)c1cnc(NC(=O)C2CC2)cc1Nc1cccc(-c2ncn(C([2H])([2H])[2H])n2)c1OC,,"human, fasted","oral, 25 mg, single dose, liquid formulation, geometric mean",,AUC(0-24 h),1640 ng·h/mL
CC1(C)CCC(CN2CCN(c3ccc(C(=O)NS(=O)(=O)c4ccc(NCC5CCOCC5)c([N+](=O)[O-])c4)c(Oc4cnc5[nH]ccc5c4)c3)CC2)=C(c2ccc(Cl)cc2)C1,UPLC-MS/MS,non-responders,"oral, dose not given, 6 h, normalised to dose per body weight",,dose-normalised C6 (C6/D),0.32
COc1cc(Nc2ncc3c(n2)-c2ccc(Cl)cc2C(c2c(F)cccc2OC)=NC3)ccc1C(=O)O,"refers to: Hypercalcemia, grade 1","cancer patients, phase 1/2","oral, dose not given, added: pembrolizumab",,patients with adverse event,21%
NC1(C(=O)N[C@@H](CCO)c2ccc(Cl)cc2)CCN(c2nc[nH]c3nccc2-3)CC1,,metastatic CRPC patients,"320 mg b.i.d., grade 3 to 4, treatment-related, added: enzalutamide 160 mg daily",,incidence of decreased appetite,0%
O=C(Nc1nc2cccc(-c3ccc(CN4CCS(=O)(=O)CC4)cc3)n2n1)C1CC1,refers to: constipation,human rheumatoid arthritis patients,"oral, 300 mg once daily, 4 weeks, regardless of relatedness",,treatment-emergent adverse events,0%
CNC(=O)c1cc(Oc2ccc(NC(=O)Nc3ccc(Cl)c(C(F)(F)F)c3)c(F)c2)ccn1,,mouse plasma,"25 ng/mL, 6 months, -80 °C",,long-term stability accuracy,96.2%
Cn1c(=O)[nH]c(=O)c2[nH]cnc21,,"human, cerebrospinal fluid","dose not given, mean",,CSF concentration,not detected
O=C(/C=C/CCc1ccc(O)cc1)/C=C/c1ccc(O)cc1,,nude mouse MCF7 xenograft,"20 mg/kg, day 0",,body weight,19.9 ± 0.76 g
O=C(Cc1ccc(-c2cccs2)cc1)Nc1cc(C2CC2)[nH]n1,,octanol/buffer,pH 11,,logP,4.19
CN[C@H](CC(C)C)C(=O)N[C@H]1C(=O)N[C@@H](CC(N)=O)C(=O)N[C@H]2C(=O)N[C@H]3C(=O)N[C@H](C(=O)N[C@H](C(=O)O)c4cc(O)cc(O)c4-c4cc3ccc4O)[C@H](O)c3ccc(c(Cl)c3)Oc3cc2cc(c3O[C@@H]2O[C@H](CO)[C@@H](O)[C@H](O)[C@H]2O[C@H]2C[C@](C)(N)[C@H](O)[C@H](C)O2)Oc2ccc(cc2Cl)[C@H]1O,,"male C57BL/6J mouse, thalamus","intracerebroventricular, 84 µg",,time to sensor saturation,≤ 120 min
N#Cc1ccc(C(c2ccc(C#N)cc2)n2cncn2)cc1,,"human patients, tumour extracellular fluid",12.5 mg daily,,steady-state concentration,1.42 ± 0.04 µmol/L
N#Cc1ccc2c(c1)[C@H]1CCCN(C(=O)c3ccc4[nH]cnc4c3)[C@H]1C2,,human females,"80 mg, end of trial",,androstenedione,3.8 nmol/L
CCc1nc(C(N)=O)c(Nc2ccc(N3CCC(N4CCN(C)CC4)CC3)c(OC)c2)nc1NC1CCOCC1,,mouse plasma,"15 ng/mL, 22 days, -80 °C",,long-term stability accuracy,96.8%
C=CC(=O)Nc1cc(Nc2nccc(-c3cn(C)c4ccccc34)n2)c(OC)cc1N(C)CCN(C)C,storage stability,human plasma,"72 h, on ice, high QC level",,recovery,77.2%
COc1ccccc1NC(=O)CSc1nncn1C,,octanol/buffer,"pH 11, known kinase inactives set",,logP,0.79
Oc1ccc2c3c(cnc2c1)-c1ccc(C(F)(F)F)cc1O[C@@H]3c1ccc(OCCN2CC(CF)C2)cc1,,"mouse, non-tumour-bearing, brain","oral, dose not given, 7 days daily, added: fulvestrant s.c.",,total brain concentration,464 nmol/L
COC(=O)c1ccccc1Oc1nc(NC(C)C)nc(NC(C)C)n1,,octanol/buffer,"pH 11, known kinase inactives set",,logP,3.54
C[C@@H](c1nc(-c2ccc(C#N)cc2)cs1)[C@](O)(Cn1cncn1)c1cc(F)ccc1F,,healthy humans,"oral, dose not given, added: ketoconazole",,adverse event Nausea,0%
NC/C(=C\F)COc1cccc(Cn2c(=S)[nH]c(=O)c3[nH]cnc32)c1,,dog hepatocytes,"1 µM, 1 h",,remaining compound,77%
C=CC(=O)N1CCC(Oc2cc3c(Nc4ccc(Cl)c(Cl)c4F)ncnc3cc2OC)CC1,,"Sprague-Dawley rat, male, plasma","oral, 2 mg/kg, 1 weeks pretreatment, added: Schisandrin A 20 mg/kg daily pretreatment",,elimination half-life,3.35 ± 0.94 h
CN(C(=O)n1cnc(-c2cccnc2)c1)[C@H]1CC[C@H](O)CC1,,"Wistar rat, medulla oblongata","oral, 10 mg/kg of BIA 10-2474, 24 h, single dose",,concentration,14.3 ± 0.9 ng/g
COc1ncc(-c2nc3c(n2C(C)C)[C@H](c2ccc(Cl)cc2)N(c2cc(Cl)cn(C)c2=O)C3=O)c(OC)n1,,"human patients, plasma","oral, 400 mg, high-dose arm, cycle 1 day 1",,median Tmax,3 h
Oc1ccc(/C=C/c2cc(O)cc(O)c2)cc1,,"rat, azoxymethane-injected, blood at sacrifice",10 mg/kg,,albumin,4.8 g/dL
CCN1/C(=C/C(C)=O)Sc2ccc(F)cc21,,cynomolgus monkey,"oral, 10 mg/kg, 24 h post-dose",reference: pre-dose,mean blood pressure change,108 ± 7.7%
N=C(N)NC(=O)c1nc(Cl)c(NCc2cc(Cl)cc(Cl)c2)nc1N,,octanol/buffer,"pH 11, urokinase ligand set",,logP,3.62
C[C@@H]1CCO[C@H]2Cn3cc(C(=O)NCc4ccc(F)cc4F)c(=O)c(O)c3C(=O)N12,,"Tat+ transgenic mouse, plasma","subcutaneous osmotic pump, dose not given, 5 d",,drug concentration,486 ± 60.9 ng/mL

# Excerpt of the above:
Structure (SMILES),assay,system,setting,scale,measurement,result
COc1cc(Nc2ncc3c(n2)-c2ccc(Cl)cc2C(c2c(F)cccc2OC)=NC3)ccc1C(=O)O,"refers to: Hypercalcemia, grade 1","cancer patients, phase 1/2","oral, dose not given, added: pembrolizumab",,patients with adverse event,21%
NC1(C(=O)N[C@@H](CCO)c2ccc(Cl)cc2)CCN(c2nc[nH]c3nccc2-3)CC1,,metastatic CRPC patients,"320 mg b.i.d., grade 3 to 4, treatment-related, added: enzalutamide 160 mg daily",,incidence of decreased appetite,0%
O=C(Nc1nc2cccc(-c3ccc(CN4CCS(=O)(=O)CC4)cc3)n2n1)C1CC1,refers to: constipation,human rheumatoid arthritis patients,"oral, 300 mg once daily, 4 weeks, regardless of relatedness",,treatment-emergent adverse events,0%
